Experimental data from different studies.
Each numbered part is a random draw from the data of one study; scales do not carry over between parts.

Study 1 — method: competition protein-binding microarray; molecule type: double-stranded DNA, one strand shown; medium: in vitro; concentration: 2 µM; together with: Cbf1 competitor, 0.05 µM; reading: higher = stronger binding
Target: Phosphate system positive regulatory protein PHO4, full length, GST-tagged (PHO4, Saccharomyces cerevisiae, UniProt P07270, residues 1-312)
Notes: whole 60-bp probe, lowest competitor level
Construct (chain): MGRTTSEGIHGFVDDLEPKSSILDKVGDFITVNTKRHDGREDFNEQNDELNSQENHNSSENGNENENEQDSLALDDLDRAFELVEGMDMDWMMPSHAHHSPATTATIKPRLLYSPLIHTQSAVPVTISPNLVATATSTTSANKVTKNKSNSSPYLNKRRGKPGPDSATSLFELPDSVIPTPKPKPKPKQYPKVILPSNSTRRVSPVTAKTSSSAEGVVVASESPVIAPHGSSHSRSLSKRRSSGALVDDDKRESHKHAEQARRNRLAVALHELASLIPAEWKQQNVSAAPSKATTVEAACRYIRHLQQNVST
Strand	fluorescence intensity [a.u.]
CGCAGGGAGCCTGGCCACATGGGAGGGGTGTGGTCCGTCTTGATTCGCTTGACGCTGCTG	8160
TAAGTGAGGTTCCATCACGGGGCCACCGTTCTCATTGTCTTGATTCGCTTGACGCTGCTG	6390
ATATTAAAAAACCATCACGTGGTGAAAAAAAAAATTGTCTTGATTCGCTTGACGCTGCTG	19800
CGGGCTGATAACTAGATGGTGTGTTCGGGCAGTATAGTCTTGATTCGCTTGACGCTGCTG	4070
CTAACGAAGGTTTGTGTCGTGGGTGACAAGCCAAGTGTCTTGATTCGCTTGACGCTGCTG	6140
CTTCTGTAAATTTGCAAGGTGGGTGGACGCGCCCCGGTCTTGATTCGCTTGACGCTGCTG	3800
AAGCCACAAACTTTTTGCATGACAGTCATTGTGTACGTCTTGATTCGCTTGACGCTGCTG	4750
AACGGGTTTCGAGATCTCGTGAGGATGGTTTTGGAAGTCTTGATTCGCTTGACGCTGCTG	5180
TCATATTTGACGAGTCACGTTTCTTACAATGTCTACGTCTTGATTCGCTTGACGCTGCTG	11700
CTGGAGGGCGTAACGGCCGTGATGGGGCCTGAGCTCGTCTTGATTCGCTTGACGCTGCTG	2990
TGCAGGGAGAGGTGGCACGAGGCCGAGAGACGGGAGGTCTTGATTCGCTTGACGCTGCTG	11800
CTTGAAACTCCTCCACGCGTGCTTTTTCTTGTTCAGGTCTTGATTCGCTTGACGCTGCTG	12100
CATACCCAACCTTGTCACTATACTTAAGATATTTGTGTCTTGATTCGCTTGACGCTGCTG	3400
GATCAGTTTTCCACATCCGTGATGGGGCGCAAATTAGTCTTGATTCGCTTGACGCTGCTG	4480
AAATTACTAAGTTGTCACTTCACTTACCCCGTATGAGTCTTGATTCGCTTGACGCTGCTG	3430
TGCGCAACAACTTGGACCGTGGGTGTATGTCTAGAAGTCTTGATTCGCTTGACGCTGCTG	8690
CTTCTGTAAATTTTTCACGTGCGGTGAAGCGCCCCGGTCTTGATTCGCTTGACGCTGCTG	16200
AAGGCCGAGAGGAAGCGCGTGATGGAAGCCCGATCTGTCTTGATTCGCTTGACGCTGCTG	6690
GTCTTGTCTCATTTTCACGTGGTCTTCCCCACTTCAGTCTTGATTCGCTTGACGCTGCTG	14500
CTTTCCCGATCTTGCGCCGTGGGTGTAGCACATTTGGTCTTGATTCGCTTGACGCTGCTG	5510
CTTCTGTAAATTTGCCGTGTGGGTGGACGCGCCCCGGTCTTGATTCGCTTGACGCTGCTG	6550
CGTTGTCGATTTTCACACGTGCAAACAATGAGGTTGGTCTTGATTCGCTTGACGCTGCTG	16400
AAAGCGGTAATTTGTCACGTGGGTGCAGATATCTATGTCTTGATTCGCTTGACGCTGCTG	19300

Study 2 — method: protein-binding microarray; molecule type: double-stranded DNA, one strand shown; medium: in vitro; concentration: not given; reading: higher = stronger binding
Target: Protein C-ets-1 (ETS1, Homo sapiens, UniProt P14921, residues 1-441, K379A, full length assumed)
Notes: k-mer, scored over probes, only values ≥0.25
Residues (chain): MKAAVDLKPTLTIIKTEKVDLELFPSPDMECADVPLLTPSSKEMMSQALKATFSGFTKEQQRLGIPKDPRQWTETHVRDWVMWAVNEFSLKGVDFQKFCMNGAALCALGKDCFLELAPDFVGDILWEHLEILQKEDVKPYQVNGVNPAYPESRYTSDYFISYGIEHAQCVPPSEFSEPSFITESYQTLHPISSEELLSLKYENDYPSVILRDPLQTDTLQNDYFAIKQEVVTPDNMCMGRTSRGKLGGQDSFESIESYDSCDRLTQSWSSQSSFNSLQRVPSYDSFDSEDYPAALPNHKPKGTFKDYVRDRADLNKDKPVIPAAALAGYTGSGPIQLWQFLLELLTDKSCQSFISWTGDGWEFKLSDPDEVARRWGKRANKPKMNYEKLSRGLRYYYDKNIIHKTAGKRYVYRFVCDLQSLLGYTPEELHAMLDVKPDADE
Strand	E-score
ACCGACCG	0.319
GACGGTAC	0.254
AATTACAG	0.261
ATACAAAA	0.259
ACATTACC	0.257
TATACGAA	0.29
ATACAAAC	0.281
CCTCCCCA	0.275
CCCACCGG	0.308
AACGGTAC	0.339
CGGAAATA	0.298
CCGACAAA	0.289
ACACATAT	0.356
ATCCGGGG	0.316
CGATACAC	0.254
ACGATGTA	0.334
CATTCCCG	0.273
CAACCGGA	0.371
ACCGCCAC	0.264

Study 3 — method: RNA Bind-n-Seq; molecule type: RNA; medium: in vitro; concentration: 200 nM; notes: whole 134-nt RNA, ends assumed; together with: 150 mM KCl; reference: input library; reading: higher = stronger binding
Target: Fragile X messenger ribonucleoprotein 1, C-terminal low-complexity region (Fmr1, Mus musculus, UniProt P35922)
Strand	log2 enrichment
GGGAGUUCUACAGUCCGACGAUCGCAGGAAGUAAAAACAAAUGGAAAUGCUUCGGAUAGUGGCAGGGGUGGGGGUUGCUAAGGAAAGGGUAGGAUGGGAGUGGGUAAAGAGUUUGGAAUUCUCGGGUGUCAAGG	0.272
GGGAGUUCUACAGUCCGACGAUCGUCCUGUGCUACACAUCGUAUGUACCGAAUCGGGAAAAAGGGAAAAAGGGGAAAAAGGGAAAGUAUUAUGUUACGCCGUUCGGAUCUGCAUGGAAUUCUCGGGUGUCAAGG	-0.126
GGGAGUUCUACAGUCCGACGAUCCACAGACAACACGCACCCACACAGACACAGAGGGAAGGGGUUGGGAUGGGGACAGGGUGCACAGCAGGGCGGGGUAGGCCCCCAGCCCCUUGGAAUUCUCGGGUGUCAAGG	1.23
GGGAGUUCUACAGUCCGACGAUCUGUACUGAUGACAGCUAAUCUCUGAAUCUUUUUCCUCCAGGAUGUUCCUUCAGGAGGAAGCAGCACUAAAAGCACUCUGAGUCAAGAUGAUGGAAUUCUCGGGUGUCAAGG	-1.02
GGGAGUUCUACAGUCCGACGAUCUUGUGAGCUGCAAGCUAGGCUGCAGGCCCAGGAAGAACAGCAUCAGGAAGUCCAGAAGGCAAAAGAAGCAGACAUAGAGAAGCUGAACCAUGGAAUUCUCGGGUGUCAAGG	-1.25
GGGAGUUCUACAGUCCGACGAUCAGUCCUGUGCUACACAUCGUAUGUACCGAAUCGGGGAAAAGGGAAAAGGGAAAAGGGGAAAGUAUUAUGUUACGCCGUUCGGAUCUGCACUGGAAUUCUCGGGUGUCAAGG	0.481
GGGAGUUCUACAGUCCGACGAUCUGGCCCUGGUGGCAUGCGGGGAGGAAGAGGUGGCCUCAUGGAUCGUCGUGGUCCCGGUGGAAUGUUCAGAGGUGGCCGUGGUGGAGACAGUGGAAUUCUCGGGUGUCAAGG	0.0282
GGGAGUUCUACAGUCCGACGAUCUAACUUUAGAGGAGGAUCUGAUGGAUAUGGCAGUGGACGUGGAUUUGGGGAUGGCUAGAAUGGGUAUGGAGGAGGACCUGGAGGUGGCAAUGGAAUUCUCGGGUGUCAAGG	0.261
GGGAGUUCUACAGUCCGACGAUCCAAGUCCUGUGCUACACAUCGUAUGUACCGAAUCGGGUGGGUGGGAAAAAAAGGGAAAGUAUUAUGUUACGCCGUUCGGAUCUGCACUUCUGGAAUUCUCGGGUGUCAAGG	0.513
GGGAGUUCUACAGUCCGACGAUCCCUCAAGUCCUGUGCUACACAUCGUAUGUACCGAAUCGGAGGAAAAAGGAGGAAAGUAUUAUGUUACGCCGUUCGGAUCUGCACUUCCAGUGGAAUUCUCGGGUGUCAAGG	0.281

Study 4 — method: protein binding microarray; molecule type: double-stranded DNA, one strand shown; medium: in vitro; concentration: not given; reference: not given; reading: higher = stronger binding
Target: Histone acetyltransferase KAT6A, winged helix 1, GST fusion (KAT6A, Homo sapiens, UniProt Q92794, residues 1-85)
Notes: 8-mer, flanks averaged, mean of 2 arrays, mostly near background
Residues (chain): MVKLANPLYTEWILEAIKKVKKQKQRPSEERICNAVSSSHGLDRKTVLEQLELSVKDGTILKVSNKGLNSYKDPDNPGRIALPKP
Strand	E-score
CTGGCCTA	-0.084
TAGATTCA	-0.173
GGAACAGA	-0.113
CTCGCTGC	0.0647
CGGAGCAA	0.03
AAATGATG	-0.273
CTCCACTA	-0.138
GGGCAGAA	-0.0789
CACCAAAG	-0.059
CCCCCCAC	-0.275
CTACTACA	-0.104
TACTATGA	-0.198
GACTGGTA	0.00607
CGGGCTTC	0.243
CATGTCTA	-0.157
AGAAATGA	-0.222
CAATTCAA	-0.278
AGCTACGG	0.19
GATATTGA	-0.0772
GAAGTCTA	-0.189
TCCCCAAA	-0.195
AAACCCCA	-0.33

Repeated from above (study 1):
Strand	fluorescence intensity [a.u.]
TGCGCAACAACTTGGACCGTGGGTGTATGTCTAGAAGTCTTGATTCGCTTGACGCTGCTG	8690
CTTCTGTAAATTTTTCACGTGCGGTGAAGCGCCCCGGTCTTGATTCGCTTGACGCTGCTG	16200
AAGGCCGAGAGGAAGCGCGTGATGGAAGCCCGATCTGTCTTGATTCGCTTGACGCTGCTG	6690
GTCTTGTCTCATTTTCACGTGGTCTTCCCCACTTCAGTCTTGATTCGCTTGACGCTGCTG	14500
CTTTCCCGATCTTGCGCCGTGGGTGTAGCACATTTGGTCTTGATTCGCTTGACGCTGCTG	5510
